Measurements of several laboratories.
Parts stem from different laboratories: compare values within a part only. Values joined by “and” are separate records of one study, mostly repeats; a detail may differ.
Chain of UniProt Q9HBY8 (whole entry, looked up): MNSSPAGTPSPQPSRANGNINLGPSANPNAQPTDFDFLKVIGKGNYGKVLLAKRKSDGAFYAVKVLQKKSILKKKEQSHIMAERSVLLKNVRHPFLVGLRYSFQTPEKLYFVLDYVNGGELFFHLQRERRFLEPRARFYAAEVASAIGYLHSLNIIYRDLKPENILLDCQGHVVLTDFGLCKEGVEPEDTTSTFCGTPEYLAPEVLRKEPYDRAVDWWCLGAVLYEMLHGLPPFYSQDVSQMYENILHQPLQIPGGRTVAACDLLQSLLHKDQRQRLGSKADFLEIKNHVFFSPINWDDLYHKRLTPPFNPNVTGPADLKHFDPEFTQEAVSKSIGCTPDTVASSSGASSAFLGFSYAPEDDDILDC
Chain of UniProt Q8N568 (whole entry, looked up): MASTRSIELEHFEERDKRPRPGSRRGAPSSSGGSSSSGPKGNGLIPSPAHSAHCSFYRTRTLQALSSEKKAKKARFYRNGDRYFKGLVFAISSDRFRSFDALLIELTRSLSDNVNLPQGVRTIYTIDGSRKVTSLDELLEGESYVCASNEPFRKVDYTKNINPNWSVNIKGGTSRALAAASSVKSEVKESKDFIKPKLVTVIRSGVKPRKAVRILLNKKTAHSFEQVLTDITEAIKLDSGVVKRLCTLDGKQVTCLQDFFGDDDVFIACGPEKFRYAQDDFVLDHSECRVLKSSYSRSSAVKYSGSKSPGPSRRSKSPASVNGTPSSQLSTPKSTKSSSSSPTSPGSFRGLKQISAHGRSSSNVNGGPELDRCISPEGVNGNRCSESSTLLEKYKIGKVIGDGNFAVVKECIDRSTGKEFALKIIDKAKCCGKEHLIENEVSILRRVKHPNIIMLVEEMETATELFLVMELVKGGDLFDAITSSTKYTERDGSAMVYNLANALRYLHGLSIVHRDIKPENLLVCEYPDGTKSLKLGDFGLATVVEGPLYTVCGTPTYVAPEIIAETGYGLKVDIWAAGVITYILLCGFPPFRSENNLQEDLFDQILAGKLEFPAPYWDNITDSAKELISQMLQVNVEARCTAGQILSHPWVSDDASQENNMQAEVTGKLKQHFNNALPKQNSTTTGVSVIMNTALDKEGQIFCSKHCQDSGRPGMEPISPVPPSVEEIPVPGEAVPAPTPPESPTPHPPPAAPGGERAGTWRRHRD
Chain of UniProt P14616 (whole entry, looked up): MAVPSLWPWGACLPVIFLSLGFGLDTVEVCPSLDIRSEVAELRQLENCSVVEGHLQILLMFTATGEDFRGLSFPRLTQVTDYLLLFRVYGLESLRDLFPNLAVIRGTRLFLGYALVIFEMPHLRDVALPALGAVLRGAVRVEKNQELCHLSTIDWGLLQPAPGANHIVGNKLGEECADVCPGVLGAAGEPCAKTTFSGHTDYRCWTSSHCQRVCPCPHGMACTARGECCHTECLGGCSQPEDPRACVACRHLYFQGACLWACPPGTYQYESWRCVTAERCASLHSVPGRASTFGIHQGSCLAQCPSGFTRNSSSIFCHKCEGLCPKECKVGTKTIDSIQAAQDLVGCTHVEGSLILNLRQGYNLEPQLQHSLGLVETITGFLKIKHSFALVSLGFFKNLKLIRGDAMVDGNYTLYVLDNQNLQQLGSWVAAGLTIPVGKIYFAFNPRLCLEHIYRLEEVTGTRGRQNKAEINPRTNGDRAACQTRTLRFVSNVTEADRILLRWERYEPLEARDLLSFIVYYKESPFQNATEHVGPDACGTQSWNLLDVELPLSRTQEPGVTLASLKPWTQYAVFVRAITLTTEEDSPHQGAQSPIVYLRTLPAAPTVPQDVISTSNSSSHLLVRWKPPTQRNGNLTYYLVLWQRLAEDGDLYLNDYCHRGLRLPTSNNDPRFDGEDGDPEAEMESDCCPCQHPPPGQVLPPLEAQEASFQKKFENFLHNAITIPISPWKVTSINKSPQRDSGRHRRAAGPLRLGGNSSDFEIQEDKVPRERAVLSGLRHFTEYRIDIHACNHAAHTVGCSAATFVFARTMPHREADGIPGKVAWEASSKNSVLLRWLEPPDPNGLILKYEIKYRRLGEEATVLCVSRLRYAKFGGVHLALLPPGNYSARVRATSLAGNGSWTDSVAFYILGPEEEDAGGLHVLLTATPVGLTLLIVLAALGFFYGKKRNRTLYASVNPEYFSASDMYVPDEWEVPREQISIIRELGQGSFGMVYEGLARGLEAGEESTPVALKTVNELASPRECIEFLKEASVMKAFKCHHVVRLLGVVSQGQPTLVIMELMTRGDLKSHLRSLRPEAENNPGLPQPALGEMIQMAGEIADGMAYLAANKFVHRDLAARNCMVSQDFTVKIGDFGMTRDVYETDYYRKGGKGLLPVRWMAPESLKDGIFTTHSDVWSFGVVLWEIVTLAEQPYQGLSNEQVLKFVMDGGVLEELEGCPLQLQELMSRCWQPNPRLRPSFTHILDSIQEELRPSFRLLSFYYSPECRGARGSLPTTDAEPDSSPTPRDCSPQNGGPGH
Chain of UniProt P21709 (whole entry, looked up): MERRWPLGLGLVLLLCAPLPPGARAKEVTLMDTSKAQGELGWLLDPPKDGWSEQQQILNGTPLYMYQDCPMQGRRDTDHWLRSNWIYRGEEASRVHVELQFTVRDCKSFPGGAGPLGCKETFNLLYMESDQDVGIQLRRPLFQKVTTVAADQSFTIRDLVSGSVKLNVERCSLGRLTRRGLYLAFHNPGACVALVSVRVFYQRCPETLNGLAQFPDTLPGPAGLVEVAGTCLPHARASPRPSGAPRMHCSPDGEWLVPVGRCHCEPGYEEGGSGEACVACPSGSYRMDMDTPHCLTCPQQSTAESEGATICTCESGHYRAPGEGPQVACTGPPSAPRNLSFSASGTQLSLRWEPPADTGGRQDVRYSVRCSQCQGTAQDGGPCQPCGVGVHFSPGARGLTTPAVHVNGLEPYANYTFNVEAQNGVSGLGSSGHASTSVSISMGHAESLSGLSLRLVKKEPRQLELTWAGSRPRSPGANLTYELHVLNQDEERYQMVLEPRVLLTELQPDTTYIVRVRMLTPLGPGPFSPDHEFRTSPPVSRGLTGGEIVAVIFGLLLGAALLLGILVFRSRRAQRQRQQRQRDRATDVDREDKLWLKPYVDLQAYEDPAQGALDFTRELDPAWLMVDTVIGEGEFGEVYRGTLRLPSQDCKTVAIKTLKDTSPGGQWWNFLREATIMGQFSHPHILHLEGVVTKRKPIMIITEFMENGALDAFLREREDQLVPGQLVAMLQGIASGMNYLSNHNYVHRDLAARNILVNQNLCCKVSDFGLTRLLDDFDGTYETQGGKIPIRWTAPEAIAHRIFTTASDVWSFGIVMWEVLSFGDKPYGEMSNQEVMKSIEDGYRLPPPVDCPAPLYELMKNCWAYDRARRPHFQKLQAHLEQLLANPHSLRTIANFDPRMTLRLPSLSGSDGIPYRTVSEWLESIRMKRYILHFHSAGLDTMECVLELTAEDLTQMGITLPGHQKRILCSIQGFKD
Chain of UniProt Q9BUB5 (whole entry, looked up): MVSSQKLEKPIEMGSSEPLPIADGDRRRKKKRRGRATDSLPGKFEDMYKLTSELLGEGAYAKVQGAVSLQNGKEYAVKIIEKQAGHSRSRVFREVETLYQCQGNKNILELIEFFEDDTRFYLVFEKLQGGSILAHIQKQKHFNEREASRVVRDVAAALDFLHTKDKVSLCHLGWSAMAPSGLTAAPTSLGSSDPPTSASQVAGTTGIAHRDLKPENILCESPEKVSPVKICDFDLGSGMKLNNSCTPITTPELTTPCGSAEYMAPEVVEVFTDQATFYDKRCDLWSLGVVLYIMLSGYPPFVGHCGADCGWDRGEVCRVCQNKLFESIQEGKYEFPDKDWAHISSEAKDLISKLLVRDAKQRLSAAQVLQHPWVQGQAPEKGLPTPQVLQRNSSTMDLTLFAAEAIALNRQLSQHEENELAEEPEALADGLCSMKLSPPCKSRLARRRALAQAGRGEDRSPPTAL
Chain of UniProt P51451 (whole entry, looked up): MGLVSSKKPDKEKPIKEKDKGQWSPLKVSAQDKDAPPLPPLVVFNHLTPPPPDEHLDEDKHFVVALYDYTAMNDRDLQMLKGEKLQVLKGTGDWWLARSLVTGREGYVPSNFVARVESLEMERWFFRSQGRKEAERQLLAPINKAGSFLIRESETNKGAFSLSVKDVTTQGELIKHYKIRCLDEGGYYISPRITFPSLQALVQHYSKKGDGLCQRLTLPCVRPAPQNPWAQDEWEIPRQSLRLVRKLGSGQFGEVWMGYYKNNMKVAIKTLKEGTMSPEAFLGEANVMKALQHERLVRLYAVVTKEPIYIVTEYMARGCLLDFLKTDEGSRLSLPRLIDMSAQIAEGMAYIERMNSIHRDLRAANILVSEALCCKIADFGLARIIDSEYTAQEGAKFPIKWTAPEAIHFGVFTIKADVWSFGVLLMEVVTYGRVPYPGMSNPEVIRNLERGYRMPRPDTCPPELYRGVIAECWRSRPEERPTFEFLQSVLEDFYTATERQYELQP

Block 1
Target: Synaptic vesicular amine transporter (SLC18A2, Homo sapiens, UniProt Q05940)
Chain of UniProt Q05940 (whole entry, looked up): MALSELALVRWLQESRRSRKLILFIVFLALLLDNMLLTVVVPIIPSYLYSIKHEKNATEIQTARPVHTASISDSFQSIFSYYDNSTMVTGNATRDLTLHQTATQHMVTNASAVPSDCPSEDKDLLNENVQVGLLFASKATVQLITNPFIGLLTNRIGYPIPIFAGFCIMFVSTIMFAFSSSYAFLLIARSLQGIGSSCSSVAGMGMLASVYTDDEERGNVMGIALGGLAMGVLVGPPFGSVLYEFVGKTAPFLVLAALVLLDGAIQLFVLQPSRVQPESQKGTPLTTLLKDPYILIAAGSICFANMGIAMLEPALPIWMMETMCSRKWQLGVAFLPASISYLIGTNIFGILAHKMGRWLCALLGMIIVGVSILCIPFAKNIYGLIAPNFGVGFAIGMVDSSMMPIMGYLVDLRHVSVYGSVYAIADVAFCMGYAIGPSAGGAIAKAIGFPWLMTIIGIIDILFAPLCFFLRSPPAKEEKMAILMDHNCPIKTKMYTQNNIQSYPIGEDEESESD
Action: inhibitor
Setting: literature data
Quantity: IC50
SMILES = O=C(c1ccc(OCCN2CCCCC2)cc1)c1c(-c2ccc(O)cc2)sc2cc(O)ccc12; value = 127 nM
SMILES = Nc1nc2[nH]cc(CCc3ccc(C(=O)N[C@@H](CCC(=O)O)C(=O)O)cc3)c2c(=O)[nH]1; value = > 10000 nM
SMILES = CN(Cc1cnc2nc(N)nc(N)c2n1)c1ccc(C(=O)N[C@@H](CCC(=O)O)C(=O)O)cc1; value = > 10000 nM
SMILES = Oc1ccc(C(O)CNCCCCCCNCC(O)c2ccc(O)c(O)c2)cc1O (centres unmarked); value = 468 nM
SMILES = N[C@@H](Cc1cc(I)c(Oc2cc(I)c(O)c(I)c2)c(I)c1)C(=O)O; value = 6600 nM
SMILES = Cc1c(Cl)c(C)[n+]([O-])c(Cl)c1-c1noc(-c2cc(O)c(O)c([N+](=O)[O-])c2)n1; value = 1560 nM
SMILES = CCN(CC)CC(=O)Nc1c(C)cccc1C; value = > 10000 nM
SMILES = CCN(CCCCOC(=O)c1ccc(OC)c(OC)c1)C(C)Cc1ccc(OC)cc1 (centres unmarked); value = 470 nM

Block 2
SMILES: O=C1CCC(N2Cc3cc(C4CCN(Cc5ccccc5)CC4)ccc3C2=O)C(=O)N1 (centres unmarked)
Medium: plasma
Quantity: AUC(0-t)
species = male ICR mice; route = intravenous; dose = 1.0 mg/kg; value = 363 ng·h/mL and 289 ng·h/mL
species = male Sprague Dawley rats; route = intravenous; dose = 1.0 mg/kg; value = 326 ng·h/mL
species = male Sprague Dawley rats; route = oral; dose = 3.0 mg/kg; value = 384 ng·h/mL
species = mouse, ICR, male; route = intravenous; dose = 1.0 mg/kg; value = 278 ng·h/mL

Block 3
Cell line: mouse MPNST tumor cells
Technique: high-content immunofluorescence imaging
Item: nuclear SOX9
Concentration: 10 µM
Time: 12 h
Setting: mean of 2 replicates
Reference: DMSO control
Direction: higher = more nuclear SOX9
Quantity: nuclear SOX9 intensity
SMILES = O=C(COCC(=O)Nc1ccc(Cl)cc1C(=O)O)Nc1cccc(-c2ccoc2)c1; value = 117 % of DMSO
SMILES = O=C1CC[C@@H](C(=O)N2CSC[C@H]2C(=O)O)N1; value = 93 % of DMSO
SMILES = COCCc1ccc(OCC(O)CNC(C)C)cc1 (centres unmarked); value = 111 % of DMSO
SMILES = Nc1ncnc2c1ncn2C1CCCO1 (centres unmarked); value = 90.2 % of DMSO
SMILES = CN1CCOC(c2ccccc2)c2ccccc2C1 (centres unmarked); value = 105 % of DMSO
SMILES = O=C(O)c1cc([N+](=O)[O-])ccc1NCCCc1ccccc1; value = 99 % of DMSO
SMILES = CC(C)CNc1ccnc(NCc2csc(-c3ccccc3)n2)n1; value = 132 % of DMSO
SMILES = C[C@]12CCC(=O)C=C1CC[C@@H]1[C@@H]2[C@@H](O)C[C@@]2(C)[C@H]1CC[C@]2(O)C(=O)CO; value = 64.7 % of DMSO
SMILES = C#C[C@]1(O)CC[C@H]2[C@@H]3[C@H](C)CC4=C(CCC(=O)C4)[C@H]3CC[C@@]21C; value = 85.6 % of DMSO
SMILES = N=C(N)NC(=O)c1nc(Cl)c(N)nc1N; value = 95.3 % of DMSO and 110 % of DMSO
SMILES = Nc1[nH]ncc1-c1cc(Cl)ccc1Oc1cc(F)c(S(=O)(=O)Nc2cscn2)cc1Cl; value = 124 % of DMSO

Block 4
SMILES: C[C@H](NC(=O)c1cnc2n1[C@](C)(Cc1ccc(C#N)cc1)C(=O)N2c1cc(Cl)c(F)c(Cl)c1)C(=O)NC1(c2ccccn2)CC1
Effect on: cell-free assay
Technique: competition with immobilised ligand
Concentration: 1 µM
Quantity: remaining binding
target = INSRR (Homo sapiens, UniProt P14616); value = 100%
target = DCLK2 (Homo sapiens, UniProt Q8N568); value = 100%
target = BLK (Homo sapiens, UniProt P51451); value = 98%
target = MKNK1 (Homo sapiens, UniProt Q9BUB5); value = 93%
target = ROCK2 (Homo sapiens, UniProt O75116); value = 100%
target = SGK2 (Homo sapiens, UniProt Q9HBY8); value = 94%
target = EPHA1 (Homo sapiens, UniProt P21709); value = 100%
target = PRKX (Homo sapiens, UniProt P51817); value = 100%
target = NEK7 (Homo sapiens, UniProt Q8TDX7); value = 100%

Excerpt of the above (block 1):
SMILES = CCN(CC)CC(=O)Nc1c(C)cccc1C; value = > 10000 nM
SMILES = Cc1c(Cl)c(C)[n+]([O-])c(Cl)c1-c1noc(-c2cc(O)c(O)c([N+](=O)[O-])c2)n1; value = 1560 nM
SMILES = CN(Cc1cnc2nc(N)nc(N)c2n1)c1ccc(C(=O)N[C@@H](CCC(=O)O)C(=O)O)cc1; value = > 10000 nM
SMILES = N[C@@H](Cc1cc(I)c(Oc2cc(I)c(O)c(I)c2)c(I)c1)C(=O)O; value = 6600 nM
SMILES = O=C(c1ccc(OCCN2CCCCC2)cc1)c1c(-c2ccc(O)cc2)sc2cc(O)ccc12; value = 127 nM
